Measured values pooled from the literature.
Parts stem from different laboratories: compare values within a part only.

Set 1 — technique: RNA Bind-n-Seq; molecule type: RNA; medium: in vitro; concentration: 200 nM; setting: whole 134-nt RNA, ends assumed; together with: 150 mM LiCl; reference: input library; reading: higher = stronger binding; each molecule: 7-deaza-guanosine replaces G
Target: Fragile X messenger ribonucleoprotein 1, C-terminal low-complexity region (Fmr1, Mus musculus, UniProt P35922)
Constant ends, left off below: GGGAGUUCUACAGUCCGACGAUC … UGGAAUUCUCGGGUGUCAAGG
| Strand | log2 enrichment |
| --- | --- |
| CUGUGCUACACAUCGUAUGUACCGAAUCGGGCCCCCCCGGGGCCCCCCCGGGCCCCCCCGGAAAGUAUUAUGUUACGCCGUUCGGAUCUG | -0.835 |
| UUGUUUAGCAAUCAAGGAGACCGCGAAGGCGUACAUUCCCGGGUGUUGCUUCCAGGAGAAACCCUGAACGGAGAGCUCGUCCUCUUACCA | -0.227 |
| GUCCUGUGCUACACAUCGUAUGUACCGAAUCGGGGAAAAAAAGGGGUUUGGGGAGGGGAAAGUAUUAUGUUACGCCGUUCGGAUCUGCAC | -1.02 |
| CACAGACAACACGCACCCACACAGACACAGAGGGAAGGGGUUGGGAUGGGGACAGGGUGCACAGCAGGGCGGGGUAGGACCCCAGGCCCU | -0.978 |
| AGUCCUGUGCUACACAUCGUAUGUACCGAAUCGGGGAAAAAAAGGGGUGGGGUGGGGAAAGUAUUAUGUUACGCCGUUCGGAUCUGCACU | -0.378 |
| AAACAGCUCUAUAACAAAAUACAAUGCGGGUUCAUGUUAAUGUUUUUAUCUCUAACAGGUUGGUUUCAGUGCUGAUGAAACUUGGGACUC | -2.97 |
| GUCCUGUGCUACACAUCGUAUGUACCGAAUCGGGGUGGGGUUUUUUUGGGGAAAGGGGAAAGUAUUAUGUUACGCCGUUCGGAUCUGCAC | 0.429 |

Set 2 — technique: protein-binding microarray; molecule type: double-stranded DNA, one strand shown; medium: in vitro; concentration: 250 nM; setting: 60-bp whole probe; together with: salmon DNA 0.4 mg/ml; reference: random background probes; reading: higher = stronger binding; constant ends, left off below: GCCTAGCAC … GTCTTGATTCGCTTGACGCTGCTG
Target: Interferon regulatory factor 7, full length, phosphomimetic (IRF7, Homo sapiens, UniProt Q92985, residues 1-503, S101K/S471D/S472D/S475D/S476D/S477D/S483D/S484D/S487D)
Sequence of UniProt Q92985 (whole entry, unmodified, looked up): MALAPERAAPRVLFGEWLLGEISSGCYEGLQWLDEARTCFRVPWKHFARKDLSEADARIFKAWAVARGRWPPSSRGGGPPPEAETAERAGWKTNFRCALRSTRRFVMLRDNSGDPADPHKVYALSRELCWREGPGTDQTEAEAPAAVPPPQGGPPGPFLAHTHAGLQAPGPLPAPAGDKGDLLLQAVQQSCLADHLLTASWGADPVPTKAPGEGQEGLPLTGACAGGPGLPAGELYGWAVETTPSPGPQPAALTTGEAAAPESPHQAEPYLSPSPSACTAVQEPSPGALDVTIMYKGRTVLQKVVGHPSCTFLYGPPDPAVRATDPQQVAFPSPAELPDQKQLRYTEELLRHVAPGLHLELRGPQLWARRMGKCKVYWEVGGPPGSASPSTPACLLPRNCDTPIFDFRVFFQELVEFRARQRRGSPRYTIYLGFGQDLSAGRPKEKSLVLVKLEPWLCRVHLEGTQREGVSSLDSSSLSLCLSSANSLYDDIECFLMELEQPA
| Strand | log fluorescence [z-score] |
| --- | --- |
| TCAAGTGTCAATAATGACACTGTGCTA | -0.296 |
| ATTACTTTAGGTTCCCAGGTGTGCTAG | 0.487 |
| GACGTTATCGACTATCGGGACGTGCTA | -0.0593 |
| CGGCTACCGCGGCTCCTACAGTGCTAG | -0.469 |
| GACGGACTCGACTATCGGGACGTGCTA | -0.0288 |
| CTGGGGGCAGTTTCATGGCCGTGCTAG | -0.541 |
| GACGATCTCAGTTCCGAGACGTGCTAG | 0.161 |
| GCCGGTTTCGGTTCCGGGACGTGCTAG | 12.9 |
| TCATTTCTCCTTTCCAAACTGTGCTAG | 2.8 |
| TTAGGGTTCCTACTGCTTTAGTGCTAG | -0.112 |
| GACGGACTGCTTTTTCTGACGTGCTAG | -0.109 |
| TTAGATCTTAGTCTCGATTAGTGCTAG | 2.05 |
| TTAGGTATTGGACTGGGTTAGTGCTAG | -0.282 |

Set 3 — technique: protein binding microarray; molecule type: double-stranded DNA, one strand shown; medium: in vitro; concentration: not given; reference: not given; reading: higher = stronger binding
Target: Histone acetyltransferase KAT6A, both winged helices, GST fusion (KAT6A, Homo sapiens, UniProt Q92794, residues 1-181)
Setting: 8-mer, flanks averaged, mean of 2 arrays, mostly near background
Residues (chain): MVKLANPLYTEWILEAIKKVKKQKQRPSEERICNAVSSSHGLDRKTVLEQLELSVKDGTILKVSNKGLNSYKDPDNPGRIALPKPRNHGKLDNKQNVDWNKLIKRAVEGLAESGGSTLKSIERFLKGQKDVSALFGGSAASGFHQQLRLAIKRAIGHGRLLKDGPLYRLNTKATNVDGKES
| Strand | E-score |
| --- | --- |
| CATCCCCG | 0.182 |
| AAACACAA | -0.0933 |
| CATCGTTA | -0.115 |
| ACCTCGTC | -0.0176 |
| GGCTTAGA | -0.0715 |
| TCACTTAA | -0.114 |
| ACGGCTTC | 0.266 |
| ATTACAAC | -0.019 |
| CGCGAAAA | 0.228 |
| AAGCCACT | -0.25 |
| AATCGCAG | -0.107 |

Single results of other studies
| Molecule | target | assay | system | conditions | how to read | quantity | value |
| --- | --- | --- | --- | --- | --- | --- | --- |
| PhoQ, residues 284 288 289 292 302 303 TASMAF | PhoP, residues 12 14 15 18 19 SYFRT (Escherichia coli, UniProt P23836) | Sort-seq, item: YFP reporter | E. coli | PhoQ-PhoP variant library, together with: 10 µM Mg2+ | reference: high Mg2+ state, higher = stronger signaling | fold induction | 6.92 |

Some of these lines once more (set 1):
| Strand | log2 enrichment |
| --- | --- |
| AAACAGCUCUAUAACAAAAUACAAUGCGGGUUCAUGUUAAUGUUUUUAUCUCUAACAGGUUGGUUUCAGUGCUGAUGAAACUUGGGACUC | -2.97 |
| GUCCUGUGCUACACAUCGUAUGUACCGAAUCGGGGUGGGGUUUUUUUGGGGAAAGGGGAAAGUAUUAUGUUACGCCGUUCGGAUCUGCAC | 0.429 |
